Published values gathered from unrelated publications.
Numbers after ± are the reported error.
ampC: Beta-lactamase (ampC, Escherichia coli K-12, UniProt P00811)

| SMILES | target | test | system | conditions | Ki |
| --- | --- | --- | --- | --- | --- |
| CCCCc1ccc2c(c1)sc(=O)n2CCCN1CCCCCC1 | Sigma non-opioid intracellular receptor 1 (Sigmar1, Rattus norvegicus, UniProt Q9R0C9) | binding, radioligand binding | rat liver membranes | with: [3H](+)-pentazocine 5 nM | 2.2 ± 0.4 nM |
| CC(=O)N[C@@H](CCCNC(=N)N)C(=O)N[C@@H](Cc1ccc(O)cc1)C(=O)N[C@H]1CCCNC(=N)NC(=O)NCCCCNC(=O)[C@H](Cc2ccc(O)cc2)NC(=O)[C@H](CCCNC(=N)N)NC(=O)[C@H](CC(C)C)NC1=O | Neuropeptide Y receptor type 1 (NPY1R, Homo sapiens, UniProt P25929) | ligand displacement, radioligand |  |  | > 5000 nM |
| C[C@]12CCC[C@H]1[C@@H]1CCc3c(cc(Br)c(O)c3Br)[C@H]1CC2 | Aldo-keto reductase family 1 member C2 (AKR1C2, Homo sapiens, UniProt P52895) | enzyme activity, inhibitor, absorbance |  |  | 1980 nM |
| O=C(O)CN(c1ccccc1)S(=O)(=O)c1ccccc1 | ampC |  |  |  | 200000 nM |
| CC(C)CN(C[C@@H](O)[C@H](Cc1ccccc1)NC(=O)c1cccc(O)c1)S(=O)(=O)c1ccc(-c2ccno2)s1 | Gag-Pol polyprotein, protease (Human immunodeficiency virus type 1 group M subtype B, UniProt P03369) | enzyme activity, inhibitor, FRET | HIV-1 |  | 2.49 ± 0.251 nM |
| CC(=O)N[C@@H](Cc1ccccc1)C(=O)N[C@@H](Cc1ccccc1)C(=O)N[C@@H](Cc1c[nH]c2ccccc12)C(=O)N[C@@H](CCCNC(=N)N)C(=O)N[C@@H](CC(C)C)C(=O)N[C@@H](CCCNC(=N)N)C(=O)N[C@@H](CCCNC(=N)N)C(=O)N[C@H](C)C(=O)N[C@@H](CCCNC(=N)N)C(=O)N1CCC[C@H]1C(=O)N[C@@H](CCCCN)C(N)=O | Kappa-type opioid receptor (Oprk1, Rattus norvegicus, UniProt P34975) | ligand displacement, radioligand |  |  | 16.1 nM |
| CC(C)[C@H]1CC[C@@H](N2CC[C@@](C)(c3cccc(O)c3)[C@@H](C)C2)CC1 | Mu-type opioid receptor (OPRM1, Homo sapiens, UniProt P35372) | ligand displacement, radioligand |  |  | 40.3 nM |
| CCCCCCCC[C@@H](O)[C@H](C)C(=O)N[C@H](CCC(=O)O)C(=O)N[C@H](CC(=O)O)C(=O)N[C@H](CC(C)C)C(=O)N[C@H](CC(C)C)C(=O)N[C@H](CC(C)C)C(=O)N[C@H](CC(C)C)C(=O)N[C@@H](C(=O)O)C(C)C | Mediator of RNA polymerase II transcription subunit 25, ACID domain; with ATF6α (Homo sapiens, UniProt Q71SY5) | fluorescence polarization |  | with: NP40 or Triton X-100 | no effect |
| OB(O)c1ccc(OCc2ccccc2)nc1F | ampC | enzyme activity, inhibitor |  | with: CENTA | 170 nM |
| CC[C@H](C)[C@H](NC(=O)CN)C(=O)N[C@H](C(=O)N[C@@H](CC(N)=O)C(=O)N[C@H](C(=O)N[C@@H](CC(C)C)C(=O)N[C@@H](CCC(N)=O)C(=O)N[C@@H](CCCCN)C(=O)N[C@@H](Cc1ccc(O)cc1)C(=O)N[C@@H](Cc1ccc(O)cc1)C(=O)N[C@H]1CSSC[C@@H]2NC(=O)[C@H](CCCCN)NC(=O)[C@H](C)NC(=O)CNC(=O)[C@H](CCCNC(=N)N)NC(=O)[C@H]([C@@H](C)O)NC(=O)[C@H](CO)NC(=O)[C@@H]3CSSC[C@H](NC(=O)[C@H](CCCNC(=N)N)NC(=O)CNC(=O)CNC(=O)[C@H](CCCNC(=N)N)NC(=O)[C@H](C(C)C)NC(=O)[C@H](CCCNC(=N)N)NC1=O)C(=O)N[C@@H](C)C(=O)N[C@@H](C(C)C)C(=O)N[C@@H](CC(C)C)C(=O)N[C@@H](CO)C(=O)N[C@@H](CSSC[C@@H](C(=O)N[C@@H](CCCNC(=N)N)C(=O)N[C@@H](CCCNC(=N)N)C(=O)N[C@@H](CCCCN)C(=O)N[C@@H](CCCCN)C(N)=O)NC2=O)C(=O)N[C@@H](CC(C)C)C(=O)N1CCC[C@H]1C(=O)N[C@@H](CCCCN)C(=O)N[C@@H](CCC(=O)O)C(=O)N[C@@H](CCC(=O)O)C(=O)N[C@@H](CCC(N)=O)C(=O)N[C@@H]([C@@H](C)CC)C(=O)NCC(=O)N[C@@H](CCCCN)C(=O)N3)[C@@H](C)O)[C@@H](C)CC | Melanocyte-stimulating hormone receptor (MC1R, Homo sapiens, UniProt Q01726) | ligand displacement in cells |  |  | 38 nM |
